Measurements of several laboratories.
Numbered parts are unrelated; each lists some results of a single study. “And” joins repeats or separate records; there may be more than shown.
Chain of UniProt P10721 (whole entry, unmodified, looked up): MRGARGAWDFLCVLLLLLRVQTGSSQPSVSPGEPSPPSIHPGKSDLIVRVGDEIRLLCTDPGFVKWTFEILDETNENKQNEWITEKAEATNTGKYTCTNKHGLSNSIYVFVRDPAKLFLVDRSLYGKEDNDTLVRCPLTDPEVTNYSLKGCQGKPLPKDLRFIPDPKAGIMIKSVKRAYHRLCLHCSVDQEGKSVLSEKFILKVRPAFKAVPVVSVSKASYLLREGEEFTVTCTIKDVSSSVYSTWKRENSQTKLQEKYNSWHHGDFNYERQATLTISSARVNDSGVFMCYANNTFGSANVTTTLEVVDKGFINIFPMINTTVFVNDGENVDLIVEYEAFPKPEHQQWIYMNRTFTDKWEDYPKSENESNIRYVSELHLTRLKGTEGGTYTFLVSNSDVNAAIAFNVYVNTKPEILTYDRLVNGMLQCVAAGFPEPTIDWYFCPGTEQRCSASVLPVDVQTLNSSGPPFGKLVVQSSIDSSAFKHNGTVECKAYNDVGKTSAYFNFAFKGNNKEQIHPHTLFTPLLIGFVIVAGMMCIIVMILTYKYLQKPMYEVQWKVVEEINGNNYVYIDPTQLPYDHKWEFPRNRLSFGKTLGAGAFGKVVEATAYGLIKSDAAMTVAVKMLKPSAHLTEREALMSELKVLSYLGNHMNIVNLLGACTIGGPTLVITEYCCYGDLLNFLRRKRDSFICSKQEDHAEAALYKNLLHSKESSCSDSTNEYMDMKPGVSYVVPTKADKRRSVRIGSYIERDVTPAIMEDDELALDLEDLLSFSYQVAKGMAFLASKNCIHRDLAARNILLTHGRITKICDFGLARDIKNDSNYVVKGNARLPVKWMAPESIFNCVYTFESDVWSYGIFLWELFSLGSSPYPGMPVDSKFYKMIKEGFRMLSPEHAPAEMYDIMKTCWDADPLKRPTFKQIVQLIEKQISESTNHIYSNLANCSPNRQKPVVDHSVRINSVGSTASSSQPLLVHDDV
Chain of UniProt Q59H18 (whole entry, looked up): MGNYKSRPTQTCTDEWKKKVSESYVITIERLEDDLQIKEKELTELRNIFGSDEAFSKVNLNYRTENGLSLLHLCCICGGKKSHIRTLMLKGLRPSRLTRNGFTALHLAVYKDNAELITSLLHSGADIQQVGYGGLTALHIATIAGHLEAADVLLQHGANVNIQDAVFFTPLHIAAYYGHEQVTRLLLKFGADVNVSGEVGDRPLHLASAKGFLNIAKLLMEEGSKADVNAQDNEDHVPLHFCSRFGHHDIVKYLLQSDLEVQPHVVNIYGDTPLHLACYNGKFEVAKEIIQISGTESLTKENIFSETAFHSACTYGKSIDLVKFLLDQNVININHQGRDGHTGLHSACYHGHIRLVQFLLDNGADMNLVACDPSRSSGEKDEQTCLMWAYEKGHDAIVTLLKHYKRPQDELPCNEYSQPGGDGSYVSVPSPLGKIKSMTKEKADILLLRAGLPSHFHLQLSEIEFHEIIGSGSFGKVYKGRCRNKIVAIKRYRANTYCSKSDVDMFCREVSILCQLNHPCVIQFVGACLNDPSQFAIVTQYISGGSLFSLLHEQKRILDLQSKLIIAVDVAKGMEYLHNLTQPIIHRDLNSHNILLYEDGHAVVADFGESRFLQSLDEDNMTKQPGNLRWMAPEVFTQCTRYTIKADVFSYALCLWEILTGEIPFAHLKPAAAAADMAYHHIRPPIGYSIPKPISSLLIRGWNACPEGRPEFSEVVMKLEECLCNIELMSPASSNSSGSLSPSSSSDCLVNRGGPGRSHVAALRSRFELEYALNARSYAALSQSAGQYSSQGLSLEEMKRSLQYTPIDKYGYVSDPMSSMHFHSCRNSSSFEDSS
Chain of UniProt Q13188 (whole entry, looked up): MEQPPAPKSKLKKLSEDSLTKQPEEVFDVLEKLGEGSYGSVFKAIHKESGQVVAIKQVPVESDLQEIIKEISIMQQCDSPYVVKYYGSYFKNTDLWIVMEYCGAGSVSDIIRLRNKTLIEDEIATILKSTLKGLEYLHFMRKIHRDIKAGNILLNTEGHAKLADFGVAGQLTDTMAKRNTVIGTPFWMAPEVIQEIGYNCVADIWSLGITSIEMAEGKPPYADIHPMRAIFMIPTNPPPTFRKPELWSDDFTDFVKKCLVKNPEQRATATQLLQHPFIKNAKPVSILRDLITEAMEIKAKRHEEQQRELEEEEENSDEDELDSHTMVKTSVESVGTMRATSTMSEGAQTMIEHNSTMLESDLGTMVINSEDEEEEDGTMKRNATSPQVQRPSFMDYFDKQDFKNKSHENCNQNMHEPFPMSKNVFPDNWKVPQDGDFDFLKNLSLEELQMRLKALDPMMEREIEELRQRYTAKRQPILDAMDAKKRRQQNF
Chain of UniProt Q9H093 (whole entry, looked up): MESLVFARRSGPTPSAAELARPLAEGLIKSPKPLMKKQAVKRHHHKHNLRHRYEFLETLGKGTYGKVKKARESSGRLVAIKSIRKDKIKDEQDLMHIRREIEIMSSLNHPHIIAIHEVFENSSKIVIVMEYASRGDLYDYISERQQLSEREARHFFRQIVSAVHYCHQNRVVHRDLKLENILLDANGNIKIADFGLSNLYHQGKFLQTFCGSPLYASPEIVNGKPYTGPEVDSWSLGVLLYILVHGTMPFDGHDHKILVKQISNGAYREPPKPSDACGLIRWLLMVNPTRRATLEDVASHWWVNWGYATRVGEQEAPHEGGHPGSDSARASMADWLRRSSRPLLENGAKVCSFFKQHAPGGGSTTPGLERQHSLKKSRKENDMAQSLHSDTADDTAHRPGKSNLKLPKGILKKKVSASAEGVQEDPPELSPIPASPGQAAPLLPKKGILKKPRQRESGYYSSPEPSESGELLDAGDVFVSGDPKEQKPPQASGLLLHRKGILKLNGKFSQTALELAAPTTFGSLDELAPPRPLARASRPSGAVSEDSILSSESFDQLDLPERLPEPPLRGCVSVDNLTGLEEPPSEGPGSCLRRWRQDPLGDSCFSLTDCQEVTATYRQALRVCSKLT
Chain of UniProt P36897 (whole entry, looked up): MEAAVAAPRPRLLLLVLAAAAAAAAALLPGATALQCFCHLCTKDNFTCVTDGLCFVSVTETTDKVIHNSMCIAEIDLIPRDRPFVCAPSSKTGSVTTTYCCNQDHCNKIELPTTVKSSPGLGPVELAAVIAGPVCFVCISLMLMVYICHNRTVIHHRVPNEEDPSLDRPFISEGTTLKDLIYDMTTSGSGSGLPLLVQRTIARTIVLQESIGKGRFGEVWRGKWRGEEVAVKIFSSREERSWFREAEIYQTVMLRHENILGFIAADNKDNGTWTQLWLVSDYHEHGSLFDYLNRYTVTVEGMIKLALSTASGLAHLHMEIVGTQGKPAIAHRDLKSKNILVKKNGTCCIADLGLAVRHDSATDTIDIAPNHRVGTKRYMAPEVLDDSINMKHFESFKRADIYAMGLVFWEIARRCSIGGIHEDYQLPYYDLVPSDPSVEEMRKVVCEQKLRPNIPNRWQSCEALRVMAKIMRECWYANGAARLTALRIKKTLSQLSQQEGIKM
Chain of UniProt P07332 (whole entry, looked up): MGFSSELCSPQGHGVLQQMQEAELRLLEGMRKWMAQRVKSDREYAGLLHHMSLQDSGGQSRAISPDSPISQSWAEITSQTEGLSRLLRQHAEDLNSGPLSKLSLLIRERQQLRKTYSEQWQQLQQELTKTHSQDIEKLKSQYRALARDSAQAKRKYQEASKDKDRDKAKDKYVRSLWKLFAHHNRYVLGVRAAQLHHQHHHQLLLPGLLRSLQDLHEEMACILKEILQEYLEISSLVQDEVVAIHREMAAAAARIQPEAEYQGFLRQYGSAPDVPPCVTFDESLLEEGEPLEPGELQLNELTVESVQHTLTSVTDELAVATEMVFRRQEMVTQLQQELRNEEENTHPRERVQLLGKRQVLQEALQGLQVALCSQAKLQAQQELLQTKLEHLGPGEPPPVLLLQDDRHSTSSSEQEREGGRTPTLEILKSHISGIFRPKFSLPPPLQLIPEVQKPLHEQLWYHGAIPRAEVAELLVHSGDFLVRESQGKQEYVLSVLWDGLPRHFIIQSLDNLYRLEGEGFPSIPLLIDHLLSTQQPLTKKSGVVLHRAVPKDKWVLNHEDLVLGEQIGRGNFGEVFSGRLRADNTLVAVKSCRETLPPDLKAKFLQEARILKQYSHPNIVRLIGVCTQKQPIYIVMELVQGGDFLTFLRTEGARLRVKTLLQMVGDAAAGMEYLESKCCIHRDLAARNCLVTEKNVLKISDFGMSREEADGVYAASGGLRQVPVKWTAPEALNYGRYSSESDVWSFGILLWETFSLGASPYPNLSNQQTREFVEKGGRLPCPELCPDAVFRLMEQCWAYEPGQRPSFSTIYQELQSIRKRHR
Chain of UniProt Q99755 (whole entry, looked up): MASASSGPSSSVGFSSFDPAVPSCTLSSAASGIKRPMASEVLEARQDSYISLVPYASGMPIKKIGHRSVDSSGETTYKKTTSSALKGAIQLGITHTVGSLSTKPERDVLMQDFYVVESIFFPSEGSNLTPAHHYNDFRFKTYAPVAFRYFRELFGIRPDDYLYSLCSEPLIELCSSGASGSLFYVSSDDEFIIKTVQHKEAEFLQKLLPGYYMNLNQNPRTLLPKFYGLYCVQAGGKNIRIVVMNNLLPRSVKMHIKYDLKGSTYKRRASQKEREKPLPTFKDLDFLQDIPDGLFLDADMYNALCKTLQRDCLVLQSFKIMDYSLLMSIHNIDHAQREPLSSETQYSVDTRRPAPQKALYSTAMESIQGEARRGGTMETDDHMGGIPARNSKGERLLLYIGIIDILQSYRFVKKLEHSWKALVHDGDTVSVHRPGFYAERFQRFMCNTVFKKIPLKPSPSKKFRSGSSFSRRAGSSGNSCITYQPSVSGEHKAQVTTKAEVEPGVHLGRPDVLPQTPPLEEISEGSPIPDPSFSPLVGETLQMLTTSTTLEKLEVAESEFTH

Study 1
SMILES: O=c1cc(N2CCOCC2)oc2c1ccc1ccccc12
Read-out: enzyme activity
Mode: inhibitor
Tested at: 0.5 µM
Relative to: control
Quantity: remaining activity
Calcium/calmodulin-dependent protein kinase kinase 2 (CAMKK2, Homo sapiens, UniProt Q96RR4): 104%
Serine/threonine-protein kinase 10 (STK10, Homo sapiens, UniProt O94804): 96.9%
Cyclin-dependent kinase 5, with p25 (CDK5, Homo sapiens, UniProt Q00535): 98.9%
Death-associated protein kinase 1 (DAPK1, Homo sapiens, UniProt P53355): 90.9%
Serine/threonine-protein kinase OSR1 (OXSR1, Homo sapiens, UniProt O95747): 108%
Protein kinase C alpha type (PRKCA, Homo sapiens, UniProt P17252): 89.2%
TGF-beta receptor type-2 (TGFBR2, Homo sapiens, UniProt P37173): 122%
Mitogen-activated protein kinase 9 (MAPK9, Homo sapiens, UniProt P45984): 101%
cAMP-dependent protein kinase catalytic subunit alpha (PRKACA, Homo sapiens, UniProt P17612): 102%
TGF-beta receptor type-1 (TGFBR1, Homo sapiens, UniProt P36897): 98.5%
G protein-coupled receptor kinase 3 (GRK3, Homo sapiens, UniProt P35626): 102%

Study 2
Cell line: HaCaT
Tested at: 100 µM
Time: 36 h
Quantity: viability
CCCC(=O)O[C@]1(C(=O)CO)CC[C@H]2[C@@H]3CCC4=CC(=O)CC[C@]4(C)[C@H]3[C@@H](O)C[C@@]21C: 74.5%
C[C@]12C=CC(=O)C=C1CC[C@@H]1[C@@H]2[C@@H](O)C[C@@]2(C)[C@H]1CC[C@]2(O)C(=O)COP(=O)(O)O: 89%
C1N2CN3CN1CN(C2)C3: 85.6%
Cc1cccc(C)c1OCC(=O)N[C@@H](Cc1ccccc1)[C@@H](O)C[C@H](Cc1ccccc1)NC(=O)[C@H](C(C)C)N1CCCNC1=O: 15.7%

Study 3
SMILES: CC(C)CC(=O)N1CCc2nc(-c3ccc(Br)cc3)nc(N(C)Cc3ccccc3)c2C1
Read-out: cell-free assay
Method: competition with immobilised ligand
Tested at: 0.1 µM
Quantity: remaining binding
Serine/threonine-protein kinase DCLK3 (DCLK3, Homo sapiens, UniProt Q9C098): 100%
cAMP-dependent protein kinase catalytic subunit PRKX (PRKX, Homo sapiens, UniProt P51817): 100%
Fibroblast growth factor receptor 4 (FGFR4, Homo sapiens, UniProt P22455): 98%
NUAK family SNF1-like kinase 2 (NUAK2, Homo sapiens, UniProt Q9H093): 100%
Tyrosine-protein kinase Fes/Fps (FES, Homo sapiens, UniProt P07332): 100%
Ephrin type-A receptor 6 (EPHA6, Homo sapiens, UniProt Q9UF33): 100%
Serine/threonine-protein kinase TAO3 (TAOK3, Homo sapiens, UniProt Q9H2K8): 100%
Mast/stem cell growth factor receptor Kit (KIT, Homo sapiens, UniProt P10721, T670I/V559D): 95%
Serine/threonine-protein kinase 3 (STK3, Homo sapiens, UniProt Q13188): 100%
Activin receptor type-1-like (ACVRL1, Homo sapiens, UniProt P37023): 99%
Macrophage-stimulating protein receptor (MST1R, Homo sapiens, UniProt Q04912): 100%
Mast/stem cell growth factor receptor Kit (KIT, Homo sapiens, UniProt P10721, V559D/V654A): 98%
Serine/threonine-protein kinase TNNI3K (TNNI3K, Homo sapiens, UniProt Q59H18): 100%
Phosphatidylinositol 4-phosphate 5-kinase type-1 alpha (PIP5K1A, Homo sapiens, UniProt Q99755): 100%
Epidermal growth factor receptor (EGFR, Homo sapiens, UniProt P00533, del747-752/P753S): 99%

Single results of other studies
CC(=O)N[C@@H](Cc1c[nH]c2ccccc12)C(=O)N[C@@H](CCC(=O)C=[N+]=[N-])C(=O)OC(C)C
naive cells (item: CD44 CD62L; tetramer+ CD8+ T cells, mouse, draining lymph node; dose not given): 66.4% and 65.7% and 64.3% and 69.6% and 62.7% and 64.7% and 74.4%

A few entries again (study 1):
Protein kinase C alpha type (PRKCA, Homo sapiens, UniProt P17252): 89.2%
TGF-beta receptor type-2 (TGFBR2, Homo sapiens, UniProt P37173): 122%
Mitogen-activated protein kinase 9 (MAPK9, Homo sapiens, UniProt P45984): 101%
cAMP-dependent protein kinase catalytic subunit alpha (PRKACA, Homo sapiens, UniProt P17612): 102%
